{"data": "Measurements pooled from the literature", "note": "Each line is one published result; not all experiments were run side by side."}
{"Compound": "CCCCCCCC(=O)OC[C@H](NC(=O)[C@H](CO)NC(=O)CN)C(=O)N[C@@H](Cc1ccccc1)C(=O)N[C@@H](CC(C)C)C(=O)N[C@@H](CO)C(=O)N1CCC[C@H]1C(=O)N[C@@H](CCC(=O)O)C(=O)N[C@@H](Cc1cnc[nH]1)C(=O)N[C@@H](CCC(N)=O)C(=O)N[C@@H](CCCNC(=N)N)C(=O)N[C@H](C(=O)N[C@@H](CCC(N)=O)C(=O)N[C@@H](CCC(N)=O)C(=O)N[C@@H](CCCNC(=N)N)C(=O)N[C@@H](CCCCN)C(=O)N[C@@H](CCC(=O)O)C(=O)N[C@@H](CO)C(=O)N[C@@H](CCCCN)C(=O)N[C@@H](CCCCN)C(=O)N1CCC[C@H]1C(=O)N1CCC[C@H]1C(=O)N[C@@H](C)C(=O)N[C@@H](CCCCN)C(=O)N[C@@H](CC(C)C)C(=O)N[C@@H](CCC(N)=O)C(=O)N1CCC[C@H]1C(=O)N[C@@H](CCCNC(=N)N)C(=O)O)C(C)C", "test system": "mouse, plasma", "setting": "intraperitoneal, 7.2 mg/kg", "half-life [h]": 0.247}
{"Compound": "CC[C@H](C)[C@H](NC(=O)CNC(=O)[C@H](CCSC)NC(=O)[C@H](CCC(N)=O)NC(=O)[C@H](C)NC(=O)[C@H](CCC(N)=O)NC(=O)[C@@H](NC(=O)[C@H](CC(C)C)NC(=O)[C@H](C)NC(=O)[C@H](CO)NC(=O)[C@H](CCSC)NC(=O)[C@H](CCC(=O)O)NC(=O)[C@H](CC(C)C)NC(=O)[C@H](Cc1ccc(O)cc1)NC(=O)[C@H](CO)NC(=O)[C@H](CCC(=O)O)NC(=O)[C@H](CCC(N)=O)NC(=O)[C@H](CCCNC(=N)N)NC(=O)[C@H](CCCCN)NC(=O)[C@H](CC(=O)O)NC(=O)[C@H](CC(C)C)NC(=O)[C@H](CC(N)=O)NC(=O)[C@H](Cc1ccccc1)NC(=O)[C@H](CCC(=O)O)NC(=O)[C@H](CCCCN)NC(=O)[C@@H](NC(=O)[C@H](CC(C)C)NC(=O)[C@H](CCC(=O)O)NC(=O)[C@H](CCC(=O)O)NC(=O)[C@@H](NC(=O)[C@@H](NC(=O)[C@H](CCCNC(=N)N)NC(=O)[C@H](CCCCN)NC(=O)[C@H](C)NC(=O)[C@H](Cc1ccccc1)NC(=O)[C@H](CCC(=O)O)NC(=O)[C@H](CCC(=O)O)NC(=O)[C@H](CC(C)C)NC(=O)[C@@H](N)CO)C(C)C)C(C)C)C(C)C)[C@@H](C)CC)C(=O)N[C@@H](CO)C(=O)N[C@@H](CCC(=O)O)C(=O)N[C@@H](CCCNC(=N)N)C(=O)N[C@H](C(=O)N[C@H](C(=O)N[C@@H](CCC(=O)O)C(=O)N[C@H](C(=O)N[C@H](C(=O)N[C@@H](CC(C)C)C(=O)N[C@@H](CCCNC(=N)N)C(=O)N[C@@H](Cc1c[nH]cn1)C(=O)N[C@@H](C)C(=O)N[C@@H](C)C(=O)N[C@@H](CCC(N)=O)C(=O)N[C@H](C(=O)N[C@@H](CC(C)C)C(=O)N[C@@H](CCCCN)C(=O)O)[C@@H](C)O)C(C)C)[C@@H](C)CC)[C@@H](C)CC)[C@@H](C)CC", "test system": "male mouse, plasma", "setting": "intravenous, 1 mg/kg", "half-life [h]": "~2.6"}
{"Compound": "c1ccc(C2(CCNC3CCC4(SCCS4)c4ccccc43)CCOC3(CCCC3)C2)nc1 (stereo not drawn)", "test system": "male CD-1 mouse, plasma", "setting": "subcutaneous, 0.1 mg/kg", "half-life [h]": 0.67}
{"Compound": "CC(=O)N[C@@H](Cc1ccc(O)cc1)C(=O)N[C@@H](CC(C)C)C(=O)N[C@@H](CS)C(=O)N[C@@H](CO)C(=O)N[C@@H](CO)C(=O)N[C@@H](CC(N)=O)C(=O)N[C@@H](CC(N)=O)C(=O)N[C@@]1(C)CCCC=CCCC[C@@](C)(C(=O)N[C@@H](CCCCN)C(=O)N[C@@H](Cc2ccccc2)C(=O)N[C@@H](CCCNC(=N)N)C(=O)N[C@@H](CCCNC(=N)N)C(=O)NCC(=O)NCC(=O)N[C@@H](CO)C(=O)NCC(=O)NCC(=O)N[C@H](C(=O)N[C@@H](CO)C(=O)N[C@@H](Cc2ccccc2)C(=O)N[C@@]2(C)CCCC=CCCC[C@@](C)(C(=O)N[C@@H](Cc3c[nH]c4ccccc34)C(=O)N[C@@H](CC(C)C)C(=O)N[C@@H](Cc3c[nH]c4ccccc34)C(=O)N3CCC[C@H]3C(N)=O)NC(=O)[C@H](Cc3c[nH]c4ccccc34)NC(=O)[C@H](Cc3ccccc3)NC(=O)[C@H](CCC(N)=O)NC2=O)[C@@H](C)O)NC(=O)[C@H](CCCNC(=N)N)NC(=O)[C@H](CCC(=O)O)NC(=O)[C@H](CCCNC(=N)N)NC1=O", "test system": "male C57BL/6 mouse, plasma", "setting": "intraperitoneal, single dose", "half-life [h]": 13.9}
{"Compound": "CCCCCCCC(=O)NC[C@H](NC(=O)[C@H](CO)NC(=O)CN)C(=O)N[C@@H](Cc1ccccc1)C(=O)N[C@@H](CC(C)C)C(=O)N[C@@H](CO)C(=O)N1CCC[C@H]1C(=O)N[C@@H](CCC(=O)O)C(=O)N[C@@H](Cc1c[nH]cn1)C(=O)N[C@@H](CCC(N)=O)C(=O)N[C@@H](CCCNC(=N)N)C(=O)N[C@H](C(=O)N[C@@H](CCC(N)=O)C(=O)N[C@H](C(=O)N[C@@H](CCCNC(=N)N)C(=O)N1CCC[C@H]1C(=O)N1CCC[C@H]1C(=O)N[C@@H](Cc1c[nH]cn1)C(=O)N[C@@H](CCCCN)C(=O)N[C@@H](C)C(=O)N1CCC[C@H]1C(=O)N[C@@H](Cc1c[nH]cn1)C(=O)N[C@H](C(=O)N[C@H](C(=O)O)C(C)C)C(C)C)C(C)C)C(C)C", "test system": "mouse, plasma", "setting": "subcutaneous, 7.2 mg/kg", "half-life [h]": 0.21}
{"Compound": "CCCCCCCC(=O)NCCCC[C@H](NC(=O)[C@H](Cc1ccccc1)NC(=O)[C@@H](CCCNC(=N)N)NC(=O)[C@@H](N)Cc1ccc(O)cc1)C(N)=O", "test system": "male CD-1 mouse, plasma", "setting": "intravenous, 3 mg/kg", "half-life [h]": 1.26}
{"Compound": "CC(C)[C@H]1NC(=O)C[C@H]2/C=C/CCSSC[C@@H](NC1=O)C(=O)N[C@H](Cc1cccc3ccccc13)C(=O)NCC(=O)O2", "test system": "nude mouse, blood", "setting": "oral, 24 mg/kg", "half-life [h]": 0.2}
{"Compound": "C[C@@](O)(C(F)F)[C@H](NC(=O)c1ccc(C#CC#CC2CC2)cc1)C(=O)NO", "test system": "mouse, plasma", "setting": "intravenous, 40 mg/kg", "half-life [h]": 1}
{"Compound": "O=C(CN1CCN(c2cc3c(cc2F)c(=O)c(C(=O)O)cn3C2CC2)CC1)Nc1ccc(Cl)cc1", "test system": "mouse, plasma", "setting": "intravenous, 1.25 mg/kg", "half-life [h]": 5.68}
{"Compound": "CC1(O)CC23CC(O)C4(O)C(C5OC5C4(C)C)C(C)(O)C2CCC1C3O (stereo not drawn)", "test system": "mouse, plasma", "setting": "oral, 0.2 mg/kg", "half-life [h]": 1.37}
{"Compound": "COc1nc(CC=C(C)CC=CC(C)=CC(C)C(OC2OC(CO)C(O)C(O)C2O)C(C)=CCO)c(C)c(O)c1OC (stereo not drawn)", "test system": "male C57BL/6 mouse, plasma", "setting": "intravenous, 2 mg/kg", "half-life [h]": 0.443}
{"Compound": "COc1ccc(F)cc1S(=O)(=O)Nc1cnc2c(c1)C(=O)NCCO2", "test system": "male C57BL/6 mouse, plasma", "setting": "oral, 3 mg/kg, single dose", "half-life [h]": 1.4}
{"Compound": "O=c1cc(-c2ccccc2)oc2c(Br)c(O)c(O)c(O)c12", "test system": "C57BL/6 mouse, plasma", "setting": "oral, 150 mg/kg, single dose", "half-life [h]": 6.4}
{"Compound": "CS(C)(=O)=Nc1ccc(-c2ccc(-c3nc4cc(O[C@@H]5CO[C@H]6[C@@H]5OC[C@H]6O)[nH]c4cc3F)cc2)cc1", "test system": "female C57BL/6 mouse, plasma", "setting": "intravenous, 3 mg/kg", "half-life [h]": 3.1}
{"Compound": "CN(CC(=O)N(Cc1ccc(C2CCCCC2)cc1)c1ccc(C(=O)O)cc1)S(=O)(=O)c1c(F)c(F)c(F)c(F)c1F", "test system": "mouse, plasma", "setting": "intraperitoneal, 20 mg/kg", "half-life [h]": 0.167}
{"note": "A few entries again:"}
{"Compound": "CC1(O)CC23CC(O)C4(O)C(C5OC5C4(C)C)C(C)(O)C2CCC1C3O (stereo not drawn)", "test system": "mouse, plasma", "setting": "oral, 0.2 mg/kg", "half-life [h]": 1.37}
